Assay results pooled from the literature.
CTSL: Procathepsin L (CTSL, Homo sapiens, UniProt P07711)
UniProt P07711, sequence (whole entry, looked up): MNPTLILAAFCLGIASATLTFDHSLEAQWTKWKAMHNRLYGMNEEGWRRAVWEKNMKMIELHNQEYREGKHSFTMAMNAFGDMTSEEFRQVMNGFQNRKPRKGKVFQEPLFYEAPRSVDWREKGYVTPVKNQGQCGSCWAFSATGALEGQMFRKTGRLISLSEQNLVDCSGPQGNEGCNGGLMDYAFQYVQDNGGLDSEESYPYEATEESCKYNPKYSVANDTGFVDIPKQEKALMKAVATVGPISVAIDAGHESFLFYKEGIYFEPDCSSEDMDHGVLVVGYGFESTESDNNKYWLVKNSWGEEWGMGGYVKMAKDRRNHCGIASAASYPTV
DRD3: D(3) dopamine receptor (DRD3, Homo sapiens, UniProt P35462)
UniProt P35462, sequence (whole entry, looked up): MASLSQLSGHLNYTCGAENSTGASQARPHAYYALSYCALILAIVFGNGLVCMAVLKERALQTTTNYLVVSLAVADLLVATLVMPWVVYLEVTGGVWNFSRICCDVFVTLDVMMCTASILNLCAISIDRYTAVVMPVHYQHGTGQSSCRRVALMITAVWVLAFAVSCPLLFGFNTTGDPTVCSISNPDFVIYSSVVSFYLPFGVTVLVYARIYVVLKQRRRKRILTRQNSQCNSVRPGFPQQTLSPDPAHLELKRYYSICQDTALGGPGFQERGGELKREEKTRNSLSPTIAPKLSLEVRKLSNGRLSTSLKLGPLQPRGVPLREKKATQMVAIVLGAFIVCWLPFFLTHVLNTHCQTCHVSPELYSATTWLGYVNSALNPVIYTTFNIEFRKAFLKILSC
UniProt Q15375, sequence (whole entry, looked up): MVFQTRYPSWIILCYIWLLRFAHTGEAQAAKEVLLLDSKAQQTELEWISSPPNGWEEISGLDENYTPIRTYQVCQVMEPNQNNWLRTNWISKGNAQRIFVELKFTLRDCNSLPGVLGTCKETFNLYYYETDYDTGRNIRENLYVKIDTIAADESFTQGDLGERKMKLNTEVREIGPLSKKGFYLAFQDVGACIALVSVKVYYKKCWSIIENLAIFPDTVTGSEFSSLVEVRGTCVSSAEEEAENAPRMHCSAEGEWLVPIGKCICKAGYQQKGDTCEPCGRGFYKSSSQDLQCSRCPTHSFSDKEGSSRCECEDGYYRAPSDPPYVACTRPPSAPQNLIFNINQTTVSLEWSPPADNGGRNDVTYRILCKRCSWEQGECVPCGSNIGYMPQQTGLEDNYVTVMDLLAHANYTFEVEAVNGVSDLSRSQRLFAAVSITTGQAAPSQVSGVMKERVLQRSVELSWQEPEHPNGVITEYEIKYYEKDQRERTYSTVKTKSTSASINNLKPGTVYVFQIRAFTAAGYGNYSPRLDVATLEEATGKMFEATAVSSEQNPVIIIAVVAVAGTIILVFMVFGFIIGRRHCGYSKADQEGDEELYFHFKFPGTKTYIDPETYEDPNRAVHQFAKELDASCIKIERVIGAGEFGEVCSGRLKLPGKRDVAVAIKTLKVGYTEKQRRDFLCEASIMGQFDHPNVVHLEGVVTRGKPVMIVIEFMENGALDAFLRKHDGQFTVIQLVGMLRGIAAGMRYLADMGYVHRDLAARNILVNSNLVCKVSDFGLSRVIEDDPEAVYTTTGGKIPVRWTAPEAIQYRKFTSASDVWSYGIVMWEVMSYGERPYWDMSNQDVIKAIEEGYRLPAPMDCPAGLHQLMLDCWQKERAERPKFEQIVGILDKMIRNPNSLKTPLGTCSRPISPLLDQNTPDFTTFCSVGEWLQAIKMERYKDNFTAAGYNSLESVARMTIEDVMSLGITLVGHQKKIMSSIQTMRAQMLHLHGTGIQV
UniProt Q9NQU5, sequence (whole entry, looked up): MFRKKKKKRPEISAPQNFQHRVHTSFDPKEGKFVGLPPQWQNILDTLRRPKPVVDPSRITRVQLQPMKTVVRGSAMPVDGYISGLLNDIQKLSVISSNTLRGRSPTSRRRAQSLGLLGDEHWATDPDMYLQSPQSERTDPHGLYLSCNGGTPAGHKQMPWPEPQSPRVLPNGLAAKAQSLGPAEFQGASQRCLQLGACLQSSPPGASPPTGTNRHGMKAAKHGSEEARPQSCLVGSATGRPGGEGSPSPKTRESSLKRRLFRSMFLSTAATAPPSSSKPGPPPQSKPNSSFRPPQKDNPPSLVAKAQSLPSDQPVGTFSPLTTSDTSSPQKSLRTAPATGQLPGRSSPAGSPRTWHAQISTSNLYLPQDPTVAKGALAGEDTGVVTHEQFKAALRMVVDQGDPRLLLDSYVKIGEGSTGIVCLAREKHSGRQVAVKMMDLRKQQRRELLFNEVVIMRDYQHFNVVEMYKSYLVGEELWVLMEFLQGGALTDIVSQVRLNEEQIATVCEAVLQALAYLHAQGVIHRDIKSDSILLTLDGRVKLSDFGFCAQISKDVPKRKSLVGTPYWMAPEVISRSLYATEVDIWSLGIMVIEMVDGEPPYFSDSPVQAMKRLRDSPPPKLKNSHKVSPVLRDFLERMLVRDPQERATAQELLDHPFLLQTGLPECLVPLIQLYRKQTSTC
UniProt P19784, sequence (whole entry, looked up): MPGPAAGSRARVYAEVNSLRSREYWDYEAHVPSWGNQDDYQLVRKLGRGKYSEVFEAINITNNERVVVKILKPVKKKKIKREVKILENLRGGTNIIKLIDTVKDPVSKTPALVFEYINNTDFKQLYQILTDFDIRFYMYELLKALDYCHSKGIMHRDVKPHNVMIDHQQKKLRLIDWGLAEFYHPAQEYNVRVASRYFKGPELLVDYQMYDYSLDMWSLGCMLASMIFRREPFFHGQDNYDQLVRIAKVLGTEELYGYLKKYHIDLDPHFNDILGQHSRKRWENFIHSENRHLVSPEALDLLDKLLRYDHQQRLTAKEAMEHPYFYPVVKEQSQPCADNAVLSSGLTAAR
UniProt P16591, sequence (whole entry, looked up): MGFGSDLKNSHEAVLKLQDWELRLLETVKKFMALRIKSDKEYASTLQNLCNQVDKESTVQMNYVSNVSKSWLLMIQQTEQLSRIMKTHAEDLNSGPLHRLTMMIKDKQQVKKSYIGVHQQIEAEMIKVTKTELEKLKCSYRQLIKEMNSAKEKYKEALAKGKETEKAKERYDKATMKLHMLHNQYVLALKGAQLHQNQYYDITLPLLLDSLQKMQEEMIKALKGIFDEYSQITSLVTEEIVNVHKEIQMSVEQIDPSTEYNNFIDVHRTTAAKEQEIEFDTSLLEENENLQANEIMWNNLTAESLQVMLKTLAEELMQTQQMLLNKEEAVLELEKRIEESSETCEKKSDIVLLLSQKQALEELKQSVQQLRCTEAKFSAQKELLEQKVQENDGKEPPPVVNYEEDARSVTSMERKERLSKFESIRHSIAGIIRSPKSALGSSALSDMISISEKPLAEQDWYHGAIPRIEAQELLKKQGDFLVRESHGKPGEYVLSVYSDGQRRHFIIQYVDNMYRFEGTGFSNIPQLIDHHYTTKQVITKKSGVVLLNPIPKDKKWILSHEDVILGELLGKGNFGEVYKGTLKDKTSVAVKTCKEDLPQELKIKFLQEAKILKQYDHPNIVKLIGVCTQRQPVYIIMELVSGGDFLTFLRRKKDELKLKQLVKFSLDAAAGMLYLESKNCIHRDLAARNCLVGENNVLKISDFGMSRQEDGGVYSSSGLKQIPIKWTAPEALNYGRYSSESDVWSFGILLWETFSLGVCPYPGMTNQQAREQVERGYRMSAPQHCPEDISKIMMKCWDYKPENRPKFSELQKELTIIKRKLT
UniProt Q70EK9, sequence (whole entry, looked up): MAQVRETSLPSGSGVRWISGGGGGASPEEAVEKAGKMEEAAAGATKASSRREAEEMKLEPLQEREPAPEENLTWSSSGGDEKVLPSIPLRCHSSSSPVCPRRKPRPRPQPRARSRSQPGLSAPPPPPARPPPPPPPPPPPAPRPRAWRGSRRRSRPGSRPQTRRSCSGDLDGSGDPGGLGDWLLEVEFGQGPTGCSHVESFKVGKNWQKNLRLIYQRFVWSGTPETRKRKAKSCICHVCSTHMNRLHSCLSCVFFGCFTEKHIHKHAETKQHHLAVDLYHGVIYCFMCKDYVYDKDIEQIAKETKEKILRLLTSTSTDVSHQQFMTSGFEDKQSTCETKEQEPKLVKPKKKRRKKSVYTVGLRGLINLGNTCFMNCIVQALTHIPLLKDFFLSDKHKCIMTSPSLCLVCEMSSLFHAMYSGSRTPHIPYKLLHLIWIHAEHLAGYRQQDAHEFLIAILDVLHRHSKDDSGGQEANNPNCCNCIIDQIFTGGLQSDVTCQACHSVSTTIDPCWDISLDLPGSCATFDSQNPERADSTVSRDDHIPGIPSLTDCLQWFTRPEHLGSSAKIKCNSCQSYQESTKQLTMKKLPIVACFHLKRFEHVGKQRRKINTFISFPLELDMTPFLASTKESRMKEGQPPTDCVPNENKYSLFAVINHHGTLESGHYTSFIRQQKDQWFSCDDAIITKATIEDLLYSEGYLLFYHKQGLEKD
UniProt Q969F8, sequence (whole entry, unmodified, looked up): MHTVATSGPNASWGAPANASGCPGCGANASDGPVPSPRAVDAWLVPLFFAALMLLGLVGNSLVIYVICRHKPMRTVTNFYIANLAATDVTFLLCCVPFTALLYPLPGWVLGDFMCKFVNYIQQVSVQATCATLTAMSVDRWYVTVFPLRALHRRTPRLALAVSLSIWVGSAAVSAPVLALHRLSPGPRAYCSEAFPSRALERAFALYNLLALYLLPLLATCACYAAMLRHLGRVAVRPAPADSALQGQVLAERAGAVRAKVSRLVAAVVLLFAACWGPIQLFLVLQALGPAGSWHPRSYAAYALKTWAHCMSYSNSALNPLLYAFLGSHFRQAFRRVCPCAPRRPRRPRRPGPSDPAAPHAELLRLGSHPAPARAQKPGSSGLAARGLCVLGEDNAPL
UniProt P61075, sequence (whole entry, looked up): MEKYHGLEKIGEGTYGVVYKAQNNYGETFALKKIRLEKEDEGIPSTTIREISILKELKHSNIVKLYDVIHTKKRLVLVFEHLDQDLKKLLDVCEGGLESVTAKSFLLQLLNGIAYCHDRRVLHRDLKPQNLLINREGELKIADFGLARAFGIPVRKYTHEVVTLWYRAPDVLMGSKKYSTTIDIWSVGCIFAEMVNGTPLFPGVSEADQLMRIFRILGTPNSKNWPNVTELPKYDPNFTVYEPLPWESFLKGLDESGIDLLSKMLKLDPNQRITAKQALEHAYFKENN

Structure (SMILES) | target or system | assay | system | conditions | endpoint | value
CCN(O)N=Nc1ccc(S(=O)(=O)Nc2nccs2)cc1 | – | ABTS scavenging | – | 240 µg/mL | inhibition | 50.2%
Nc1ccn([C@@H]2O[C@H](CO)[C@@H](O)C2(F)F)c(=O)n1 | MCF7 | cell growth or viability, MTT | – | 5 µg/mL, 48 h | viability | 26.1%
CNc1ncc2c(/C=C/C(=O)N3CCC(OC)CC3)nn(Cc3cccc(C(F)(F)F)c3)c2n1 | WNK3 (Homo sapiens, UniProt Q9BYP7) | enzyme activity, inhibitor, radiometric | – | 1 µM | remaining activity | 114%
N[C@H]1CCN(c2nccc(-c3cnn4ncccc34)n2)C1 | CRK2 (Plasmodium falciparum, UniProt P61075) | cell-free assay | – | 1 µM | remaining signal | 38%
O=C(/C=C/c1ccccc1)c1ccc(O)cc1 | CTSL | enzyme activity, inhibitor | – | 100 µM | remaining activity | 50.2%
CCN(C)C(=O)c1c(C)[nH]c(C)c1S(=O)(=O)Nc1ccc(C(F)(F)F)c(Cl)c1 | DRD3 | β-arrestin recruitment, agonist | – | 90 min | Emax | 98%
Nc1ncnc2occ(-c3ccc(NC(=O)Nc4cc(C(F)(F)F)ccc4F)cc3)c12 | Tyrosine-protein kinase ABL1, phosphorylated (ABL1, Homo sapiens, UniProt P00519, T315I) | cell-free assay, inhibitor | – | 20 µM | remaining signal | 3.3%
Cc1cc([C@@H](C)Nc2ccccc2C(=O)O)c2nc(N3CCC(F)(F)CC3)c(C#N)c(=O)n2c1 | STK11 (Homo sapiens, UniProt Q15831) | binding, competition with immobilised ligand | – | 10 µM | remaining binding | 100%
CCc1ccc(NS(=O)(=O)c2c(C)[nH]c(C)c2C(=O)N2CCC(F)(F)C2)cc1Cl | DRD3 | β-arrestin recruitment, agonist | – | 90 min | Emax | 94%
COc1cccc(-c2n[nH]c(SCc3ccccn3)n2)c1OC | – | – | male Sprague-Dawley rat, plasma | oral, 100 mg/kg, 24 h, single dose | concentration | 34.8 ng/mL
C=CCc1ccc(O)c(-c2cc(CC=C)ccc2O)c1 | USP51 (Homo sapiens, UniProt Q70EK9) | enzyme activity, inhibitor | – | 5 µM | inhibition | 0%
COc1ccc(C=CC(=O)c2ccc(OC)cc2)cc1 | CTSL | enzyme activity, inhibitor | – | 100 µM | remaining activity | 101%
C1=C/COCc2cc(ccc2OCCN2CCCC2)Nc2nccc(n2)-c2cccc(c2)COC/1 | FER (Homo sapiens, UniProt P16591) | binding | – | 0.1 µM | remaining binding | 100%
Cc1ccc(N(O)N=Nc2ccc(S(=O)(=O)Nc3onc(C)c3C)cc2)cc1 | – | ABTS scavenging | – | 240 µg/mL | inhibition | 98.1%
COc1cc(-c2cncc3c2CN(C)Cc2cc(N4CCNCC4)ccc2-3)cc(OC)c1OC | PAK6 (Homo sapiens, UniProt Q9NQU5) | enzyme activity, inhibitor | – | 1 µM | remaining activity | 111%
C=CC(=O)N1CCC(COCC(=O)N2CCN(c3nc(-c4cnc(N)nc4C(F)F)nc(N4CCOC[C@@H]4C)n3)CC2)CC1 | DAPK2 (Homo sapiens, UniProt Q9UIK4) | binding, competition with immobilised ligand | – | 1 µM | remaining binding | 100%
CCCCC(=O)Nc1ccc(-c2ccc3ncn(CCC)c(=O)c3c2)cn1 | CSNK2A2 (Homo sapiens, UniProt P19784) | binding, competition with immobilised ligand | – | 0.5 µM | remaining binding | 100%
CC[C@H](C)[C@H](NC(=O)[C@H](CCC(N)=O)NC(=O)[C@H](CCCNC(=N)N)NC(=O)[C@H](CO)NC(=O)[C@H](Cc1c[nH]cn1)NC(=O)[C@@H]1CCCN1C(=O)[C@H](C)NC(=O)[C@H](CO)NC(=O)[C@H](CC(C)C)NC(=O)CNC(=O)[C@@H]1CCCN1C(=O)[C@H](CCC(N)=O)NC(=O)[C@H](CCC(N)=O)NC(=O)[C@H](CCCNC(=N)N)NC(=O)[C@H](CO)NC(=O)CNC(=O)[C@H](CO)NC(=O)[C@H](CO)NC(=O)[C@H](CCC(=O)O)NC(=O)[C@@H]1CCCN1C(=O)[C@@H]1CCCN1C(=O)[C@@H]1CCCN1C(=O)[C@H](CO)NC(=O)[C@H](CC(C)C)NC(=O)[C@H](CO)NC(=O)[C@@H](NC(=O)CN)[C@@H](C)O)C(=O)N1CCC[C@H]1C(=O)N[C@@H](C)C(=O)N1CCC[C@H]1C(=O)N[C@@H](CCC(N)=O)C(=O)NCC(=O)N[C@@H](C)C(=O)N[C@H](C(=O)N[C@@H](CC(C)C)C(=O)N[C@H](C(=O)N[C@@H](CCC(N)=O)C(=O)N[C@@H](CCCNC(=N)N)C(=O)N[C@@H](CCC(=O)O)C(=O)N[C@@H](CCCCN)C(=O)N[C@@H](CC(=O)O)C(=O)N[C@@H](CC(C)C)C(=O)N1CCC[C@H]1C(=O)N[C@@H](CC(N)=O)C(=O)N[C@@H](Cc1ccc(O)cc1)C(=O)N[C@@H](CC(N)=O)C(=O)N[C@@H](Cc1c[nH]c2ccccc12)C(=O)N[C@@H](CC(N)=O)C(=O)N[C@@H](CO)C(=O)N[C@@H](Cc1ccccc1)C(=O)NCC(=O)N[C@@H](CC(C)C)C(=O)N[C@@H](CCCNC(=N)N)C(=O)N[C@@H](Cc1ccccc1)C(N)=O)C(C)C)C(C)C | KiSS-1 receptor (KISS1R, Homo sapiens, UniProt Q969F8, H309A) | inositol phosphate, agonist | HEK293 | – | Emax | 51.1%
COc1cc(O)c(CC=C(C)C)c(O)c1C(=O)C=Cc1ccc(O)cc1 | CTSL | enzyme activity, inhibitor | – | 100 µM | remaining activity | 6.44%
CN1CC(Oc2cnc(C#N)cc2-c2ccn3nc(NC(=O)C4CC4)cc3c2)C1 | EPHA7 (Homo sapiens, UniProt Q15375) | enzyme activity, inhibitor | – | 1 µM | inhibition | -3%
O=CCc1ccccc1 | CTSL | enzyme activity, inhibitor | – | 100 µM | remaining activity | 6.73%
O=C1CC[C@H](N2Cc3cc(N4CCN(CC5CCN(c6ccc([C@@H]7c8ccc(O)cc8CC[C@@H]7c7ccccc7)cc6)CC5)CC4)ccc3C2=O)C(=O)N1 | – | – | Sprague-Dawley rat, liver microsomes | 2.5 µM, 6 h | fraction unbound | 0.11
